Published values gathered from unrelated publications.
Parts stem from different laboratories: compare values within a part only. Changes are numbered by the printed parent chain.

Block 1 — technique: DHFR PCA, deep sequencing; matrix: yeast; with: (+)-ABA 0.39 µM; baseline: wild-type fitted maximum; direction: higher = stronger binding
Target: ABI1, truncated, D143A, DHFR fusion (Arabidopsis thaliana)
Setting: methotrexate growth selection, single substitutions
Starting sequence: PYL1, truncated, DHFR fusion (Arabidopsis thaliana); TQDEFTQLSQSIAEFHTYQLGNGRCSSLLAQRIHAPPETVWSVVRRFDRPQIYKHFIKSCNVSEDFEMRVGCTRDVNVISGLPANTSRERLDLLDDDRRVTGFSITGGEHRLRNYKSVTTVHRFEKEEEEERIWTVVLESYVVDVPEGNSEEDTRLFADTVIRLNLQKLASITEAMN; partner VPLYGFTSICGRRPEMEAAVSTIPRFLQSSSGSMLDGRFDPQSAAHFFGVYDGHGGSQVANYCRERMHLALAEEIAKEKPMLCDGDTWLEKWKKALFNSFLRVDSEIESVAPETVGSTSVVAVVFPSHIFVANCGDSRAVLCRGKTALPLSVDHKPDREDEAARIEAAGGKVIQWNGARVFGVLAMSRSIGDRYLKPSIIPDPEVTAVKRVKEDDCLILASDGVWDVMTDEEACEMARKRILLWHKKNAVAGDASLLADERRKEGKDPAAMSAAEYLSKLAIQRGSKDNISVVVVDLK
Substitution | relative binding score
S80M | 44.1%
C25K | -18.4%
E147T | 11.9%
R49F | -6.63%
S42R | 25.9%
H122C | -5.03%
R69W | -3.91%
Y18I | 0.845%
G71S | -7.54%

Block 2 — technique: universal PBM; form: double-stranded DNA, one strand shown; matrix: in vitro; concentration: not given; direction: higher = stronger binding
Target: Sal-like protein 4, full length isoform B (SALL4, Homo sapiens, UniProt Q9UJQ4-2, residues 1-616)
Setting: 8-mer, flanks averaged, mean of replicates
Construct (chain): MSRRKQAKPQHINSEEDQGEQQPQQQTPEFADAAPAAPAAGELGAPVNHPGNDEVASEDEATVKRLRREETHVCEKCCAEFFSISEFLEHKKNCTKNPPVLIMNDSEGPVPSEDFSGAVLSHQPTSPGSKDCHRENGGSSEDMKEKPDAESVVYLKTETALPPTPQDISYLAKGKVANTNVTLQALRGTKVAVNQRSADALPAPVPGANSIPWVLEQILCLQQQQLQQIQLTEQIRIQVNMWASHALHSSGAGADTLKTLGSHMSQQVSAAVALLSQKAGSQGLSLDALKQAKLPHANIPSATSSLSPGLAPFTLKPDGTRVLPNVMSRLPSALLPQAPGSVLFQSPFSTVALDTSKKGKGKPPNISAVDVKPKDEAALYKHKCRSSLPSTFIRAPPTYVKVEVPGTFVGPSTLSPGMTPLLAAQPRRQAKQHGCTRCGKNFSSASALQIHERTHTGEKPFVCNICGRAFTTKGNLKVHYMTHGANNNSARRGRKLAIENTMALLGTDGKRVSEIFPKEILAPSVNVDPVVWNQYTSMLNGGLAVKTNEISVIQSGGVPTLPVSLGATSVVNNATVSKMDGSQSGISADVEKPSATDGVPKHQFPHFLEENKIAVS
Strand | E-score
GCGCAGGA | -0.205
AGGTCGAG | -0.113
AAAATCTC | 0.0999
GGACAAAC | -0.0506
CACGGAGA | -0.196
GGTAGCCA | -0.188
CATCGCGA | -0.0998
TTGGAAAA | 0.225
CTAATAAA | 0.331
ACCAGCCG | -0.313
ACGCACAT | 0.121
CGATTTAG | 0.075
CCCACTAG | -0.237
AGGCGCTA | -0.0303
CCCCATAA | 0.0456
CCCAGCTA | -0.169

Block 3 — technique: protein-binding microarray; form: double-stranded DNA, one strand shown; matrix: in vitro; concentration: 250 nM; setting: 60-bp whole probe; with: salmon DNA 0.4 mg/ml; baseline: random background probes; direction: higher = stronger binding; all sequences stand within: GCCTAGCAC … GTCTTGATTCGCTTGACGCTGCTG
Target: Interferon regulatory factor 7, full length, phosphomimetic (IRF7, Homo sapiens, UniProt Q92985, residues 1-503, S101K/S471D/S472D/S475D/S476D/S477D/S483D/S484D/S487D)
Target sequence (chain): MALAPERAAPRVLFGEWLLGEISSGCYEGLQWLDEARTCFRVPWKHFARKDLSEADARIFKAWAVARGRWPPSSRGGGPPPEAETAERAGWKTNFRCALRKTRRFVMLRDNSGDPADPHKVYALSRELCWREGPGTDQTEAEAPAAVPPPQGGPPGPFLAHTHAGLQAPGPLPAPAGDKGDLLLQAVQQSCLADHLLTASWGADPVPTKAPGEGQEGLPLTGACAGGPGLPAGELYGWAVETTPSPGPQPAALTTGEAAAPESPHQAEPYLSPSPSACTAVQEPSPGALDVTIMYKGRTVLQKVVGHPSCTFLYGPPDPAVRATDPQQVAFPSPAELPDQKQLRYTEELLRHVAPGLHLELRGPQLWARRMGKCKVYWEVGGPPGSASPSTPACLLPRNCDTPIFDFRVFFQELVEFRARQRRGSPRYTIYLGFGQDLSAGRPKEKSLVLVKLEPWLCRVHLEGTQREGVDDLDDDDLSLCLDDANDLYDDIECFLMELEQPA
Strand | log fluorescence [z-score]
GACGGTCGCCTTTTCCTGACGTGCTAG | 0.198
TTAGGTTTCCTTATCCTTTAGTGCTAG | 2.97
CTGAGAATGGGGTTTGCAGCCGTGCTA | -1.02
GACGAACTGAGACTGGAAACGTGCTAG | 0.237
TCACATTAAATTTTAATACTGTGCTAG | 0.611
TTAGGTTTCGGGATTCGGTTAGTGCTA | 8.35
GACAGACTGGGTATCGGGACGTGCTAG | -0.344
TTCACTCTCTGCTTGTGTCTGTGCTAG | 0.0425
TTTCATATATATATGAATATGTGCTAG | 1.22
TGAGGTCTCGGACTGGGTTAGTGCTAG | 0.0684
CCTCAGCTCCCTTTCTCTCTGTGCTAG | -0.369

Block 4 — technique: competition protein-binding microarray; form: double-stranded DNA, one strand shown; matrix: in vitro; concentration: 2 µM; with: Cbf1 competitor, 0.05 µM; direction: higher = stronger binding
Target: Phosphate system positive regulatory protein PHO4, full length, GST-tagged (PHO4, Saccharomyces cerevisiae, UniProt P07270, residues 1-312)
Sequence of UniProt P07270 (whole entry, looked up): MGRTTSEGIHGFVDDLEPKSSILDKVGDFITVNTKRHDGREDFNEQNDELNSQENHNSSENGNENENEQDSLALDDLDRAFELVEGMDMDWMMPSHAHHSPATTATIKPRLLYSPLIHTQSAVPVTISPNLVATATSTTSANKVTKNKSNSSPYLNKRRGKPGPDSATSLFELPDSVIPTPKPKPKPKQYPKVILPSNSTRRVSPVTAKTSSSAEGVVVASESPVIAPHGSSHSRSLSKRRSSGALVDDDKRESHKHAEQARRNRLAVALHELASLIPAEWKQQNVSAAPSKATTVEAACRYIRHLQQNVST
Setting: whole 60-bp probe, lowest competitor level
Strand | fluorescence intensity [a.u.]
GTCTTGTCTCATTGATAAGTGGGTGTCCCCACTTCAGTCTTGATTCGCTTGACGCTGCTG | 4320
GAATTGTGGCCGCGACACCTGACAAACAATCCTCAGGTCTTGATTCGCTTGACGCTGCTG | 4390
TGCGCAACAACTTGCCACGTGGGTGTATGTCTAGAAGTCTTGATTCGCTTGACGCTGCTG | 18200
CTTATCTCGAGGAGTAACGTGGGTAGTTTGTTGGTCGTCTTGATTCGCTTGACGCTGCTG | 10800
ACCAATGGATGTTAGCACGTGTTTCAACTCAGCGGCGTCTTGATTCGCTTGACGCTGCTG | 16900
CTTTCCCGATCTTTTCACGTGTCATTAGCACATTTGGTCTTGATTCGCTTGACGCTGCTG | 13300
GGAAGGTACACAAGTCACATGGCAACTGGCTAGGATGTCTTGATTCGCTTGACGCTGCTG | 10300
GCCTTAAGATTCTGTCATGCGGGTGTCGATAGCGTCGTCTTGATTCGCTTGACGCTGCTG | 5730
TGCGCAACAACTTGCTAAGTGGGTGTATGTCTAGAAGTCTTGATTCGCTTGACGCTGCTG | 3650
CTTTCCCGATCTTGGTGGGTGGGTGTAGCACATTTGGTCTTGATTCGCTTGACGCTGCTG | 5030
CAGTCACCGTTTGGTAGATAACGACCTAAATCACCCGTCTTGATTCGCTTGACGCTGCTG | 3970
CTTCTGTAAATTTGTCACACGACTTGACGCGCCCCGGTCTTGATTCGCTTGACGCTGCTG | 5470
GTCCTAGATCAAAGACACCTGACGATGATAGCCATTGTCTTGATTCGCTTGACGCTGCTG | 4080
AAGTTTGCTGCCCTTCATGTGCTTTTATGTATGCTTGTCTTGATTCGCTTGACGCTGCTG | 6020
TACTTCGATGCCCAACACGTTATTCACATCTCTCAAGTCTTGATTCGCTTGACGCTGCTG | 8240
AAATTACTAAGTTTTCACGTGTAGTACCCCGTATGAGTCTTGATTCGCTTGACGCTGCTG | 13600
AAACATAGGACGGAACACGTGTGAAAGACAAATCTTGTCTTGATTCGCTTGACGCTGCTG | 17100
CGTCCTAGTGATTGGCGCGTGGGTGCCATGAGGAAGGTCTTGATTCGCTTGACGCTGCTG | 12100
GGGAATGTAGCGGAGCATGTGATGGAAGAGCTTCGGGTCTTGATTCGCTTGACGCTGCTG | 8550
CGCTGTTACTTCTCGCGCGTGATGGGGTCAGCGAAGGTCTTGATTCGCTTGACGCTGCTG | 7060
TGGATTTCAACGGGAAACGTGACTCGTACAGAATTTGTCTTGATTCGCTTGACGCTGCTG | 10900
AAATTACTAAGTTTTCACGTGATCTACCCCGTATGAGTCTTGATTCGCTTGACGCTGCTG | 13300

Single results of other studies
Starting sequence: BRCA2 docking peptide (human); CKKRRALDFLSRL
Substitution | target | test | test system | setting | scale | measurement | result
AKKRRALDFLSRL [C1A] | CCNE2, cyclin fold, Cln2 fusion (human) | yeast growth competition, sequencing | yeast | strong parent motif | baseline: not given, higher = stronger binding | normalised enrichment score | 1.06

Some of these lines once more (block 2):
Strand | E-score
GGTAGCCA | -0.188
CATCGCGA | -0.0998
TTGGAAAA | 0.225
CTAATAAA | 0.331
ACCAGCCG | -0.313
ACGCACAT | 0.121
CGATTTAG | 0.075
